# Measurements collected from several papers.
# Protocols differ between the studies behind these lines.
# Target: Amine oxidase [flavin-containing] B (MAOB, Homo sapiens, UniProt P27338)
# UniProt P27338, sequence (whole entry, looked up): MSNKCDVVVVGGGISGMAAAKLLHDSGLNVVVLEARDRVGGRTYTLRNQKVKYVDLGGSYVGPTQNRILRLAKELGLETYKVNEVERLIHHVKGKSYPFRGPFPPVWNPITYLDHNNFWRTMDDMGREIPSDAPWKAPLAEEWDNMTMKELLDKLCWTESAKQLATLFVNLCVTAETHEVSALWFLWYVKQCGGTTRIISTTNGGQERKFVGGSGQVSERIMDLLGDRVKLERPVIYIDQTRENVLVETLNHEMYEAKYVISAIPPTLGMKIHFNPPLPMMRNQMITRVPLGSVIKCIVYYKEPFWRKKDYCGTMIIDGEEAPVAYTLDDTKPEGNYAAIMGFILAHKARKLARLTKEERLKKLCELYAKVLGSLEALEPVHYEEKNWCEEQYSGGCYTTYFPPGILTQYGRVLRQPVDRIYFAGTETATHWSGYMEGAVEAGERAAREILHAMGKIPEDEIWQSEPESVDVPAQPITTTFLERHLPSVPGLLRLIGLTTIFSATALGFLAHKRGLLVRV
# Observed: enzyme activity
# Action: inhibitor
Compound,technique,IC50 [µM]
O=C(/C=C/c1ccc(Cl)cc1)c1cc2ccccc2oc1=O,,26.2
O=c1ccoc2ccc(OCCCN3CCOCC3)cc12,fluorescence,1.18
O=C(/C=C/c1cccc(Cl)c1)c1cc2ccccc2oc1=O,,1.53
NC(=S)N/N=C/c1ccccc1OCc1ccccc1,absorbance,9.65
O=C1c2ccccc2N(Cc2ccc(F)cc2)C12CCCC2,,12.6
S=C(N/N=C/c1ccc(OCc2ccccc2)cc1)Nc1ccccc1,absorbance,8.22
CC(=O)C1=C(C)NC(SCCCSc2nnc(Cc3ccccc3Nc3c(Cl)cccc3Cl)n2-c2ccc(Cl)c(Cl)c2)=NC1c1ccc([N+](=O)[O-])cc1 (stereo not drawn),fluorescence,9.13
Nn1c(-c2ccc(-n3nc(-c4ccccc4O)nc3-c3ccccc3O)cc2)n[nH]c1=S,fluorescence,0.41
CNC(=S)N/N=C/c1ccc(OCc2ccccc2)cc1,absorbance,0.12
O=C(Cc1ccccc1Nc1c(Cl)cccc1Cl)NNC(=S)Nc1ccc(Cl)c(Cl)c1,fluorescence,0.081
O=C1c2cc(Cl)ccc2N(Cc2ccccc2)C12CCCC2,,5.76
NC(=O)N/N=C/c1ccc(OCc2cccc(F)c2)cc1,absorbance,0.11
N#Cc1ccc(CN2c3ccccc3C(=O)C23CCCC3)cc1,,1.6
NC(=S)N/N=C/c1cccc(OCc2ccccc2)c1,absorbance,2.27
O=C1c2cc(Cl)ccc2NC12CCCC2,,23.6
NC(=O)N/N=C/c1ccc(OCc2ccccc2)cc1,absorbance,0.12
O=C(/C=C/c1ccccc1F)c1cc2ccccc2oc1=O,,7.76
COC(=O)c1ccc(-n2nc(-c3ccccc3O)nc2-c2ccccc2O)cc1,fluorescence,19.6
O=C1c2ccccc2N(Cc2ccccc2)C12CCCC2,,12.2
O=C(/C=C/c1ccccc1)c1cc2ccccc2oc1=O,,0.69
COc1ccc(C2N=C(SCCCSc3nnc(Cc4ccccc4Nc4c(Cl)cccc4Cl)n3-c3ccc(Cl)c(Cl)c3)NC(C)=C2C(C)=O)cc1 (stereo not drawn),fluorescence,8.28
CCS(=O)(=O)N1CCN(CC(=O)Nc2ccc(/C=C/C(=O)c3ccc(OC)c(OC)c3)cc2)CC1,fluorescence,> 100
NC(=S)N/N=C/c1ccc(OCc2ccccc2)cc1,absorbance,0.11
O=c1ccoc2ccc(OCCN3CCCCCC3)cc12,fluorescence,3.99

# Repeated from above:
Compound,technique,IC50 [µM]
O=C1c2cc(Cl)ccc2NC12CCCC2,,23.6
NC(=S)N/N=C/c1ccccc1OCc1ccccc1,absorbance,9.65
NC(=O)N/N=C/c1ccc(OCc2cccc(F)c2)cc1,absorbance,0.11
